Published values collected from several papers.
Compare with care: the assays were run in different laboratories. Values joined by “and” are separate records of one study, mostly repeats; a detail may differ. Numbers after ± are the reported error.
Sequence of UniProt Q01650 (whole entry, looked up): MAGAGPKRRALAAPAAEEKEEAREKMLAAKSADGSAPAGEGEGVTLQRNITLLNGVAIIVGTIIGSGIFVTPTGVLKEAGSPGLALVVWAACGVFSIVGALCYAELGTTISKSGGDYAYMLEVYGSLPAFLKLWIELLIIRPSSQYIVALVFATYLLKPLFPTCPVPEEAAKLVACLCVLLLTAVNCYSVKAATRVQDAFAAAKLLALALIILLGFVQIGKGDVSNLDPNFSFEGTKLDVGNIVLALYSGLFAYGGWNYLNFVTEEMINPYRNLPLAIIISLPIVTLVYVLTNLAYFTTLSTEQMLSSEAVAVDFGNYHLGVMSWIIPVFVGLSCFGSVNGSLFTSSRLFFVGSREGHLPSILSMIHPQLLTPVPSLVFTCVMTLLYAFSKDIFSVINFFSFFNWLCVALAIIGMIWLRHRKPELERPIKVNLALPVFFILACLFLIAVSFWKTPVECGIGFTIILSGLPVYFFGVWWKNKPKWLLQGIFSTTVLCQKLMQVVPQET
Sequence of UniProt A3M139 (whole entry, looked up): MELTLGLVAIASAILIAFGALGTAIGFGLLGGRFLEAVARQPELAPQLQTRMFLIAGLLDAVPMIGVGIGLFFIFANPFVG
Sequence of UniProt Q7Z418 (whole entry, looked up): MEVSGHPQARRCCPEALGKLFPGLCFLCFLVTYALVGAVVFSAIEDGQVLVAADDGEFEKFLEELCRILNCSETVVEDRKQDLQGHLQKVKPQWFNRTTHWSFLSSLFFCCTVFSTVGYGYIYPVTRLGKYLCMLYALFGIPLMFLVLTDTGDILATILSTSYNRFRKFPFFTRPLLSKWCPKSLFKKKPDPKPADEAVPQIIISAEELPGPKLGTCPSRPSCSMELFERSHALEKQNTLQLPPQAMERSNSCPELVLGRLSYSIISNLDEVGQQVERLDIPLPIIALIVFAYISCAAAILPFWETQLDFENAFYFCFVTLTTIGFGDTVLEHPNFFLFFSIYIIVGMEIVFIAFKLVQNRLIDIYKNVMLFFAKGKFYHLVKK
Sequence of UniProt Q9BV86 (whole entry, looked up): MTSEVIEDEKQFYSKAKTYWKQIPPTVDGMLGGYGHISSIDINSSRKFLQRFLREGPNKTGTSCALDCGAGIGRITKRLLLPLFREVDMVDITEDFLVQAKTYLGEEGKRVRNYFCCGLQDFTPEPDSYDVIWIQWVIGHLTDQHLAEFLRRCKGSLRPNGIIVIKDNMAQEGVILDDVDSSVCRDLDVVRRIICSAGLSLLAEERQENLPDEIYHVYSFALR
Sequence of UniProt Q0QF01 (whole entry, looked up): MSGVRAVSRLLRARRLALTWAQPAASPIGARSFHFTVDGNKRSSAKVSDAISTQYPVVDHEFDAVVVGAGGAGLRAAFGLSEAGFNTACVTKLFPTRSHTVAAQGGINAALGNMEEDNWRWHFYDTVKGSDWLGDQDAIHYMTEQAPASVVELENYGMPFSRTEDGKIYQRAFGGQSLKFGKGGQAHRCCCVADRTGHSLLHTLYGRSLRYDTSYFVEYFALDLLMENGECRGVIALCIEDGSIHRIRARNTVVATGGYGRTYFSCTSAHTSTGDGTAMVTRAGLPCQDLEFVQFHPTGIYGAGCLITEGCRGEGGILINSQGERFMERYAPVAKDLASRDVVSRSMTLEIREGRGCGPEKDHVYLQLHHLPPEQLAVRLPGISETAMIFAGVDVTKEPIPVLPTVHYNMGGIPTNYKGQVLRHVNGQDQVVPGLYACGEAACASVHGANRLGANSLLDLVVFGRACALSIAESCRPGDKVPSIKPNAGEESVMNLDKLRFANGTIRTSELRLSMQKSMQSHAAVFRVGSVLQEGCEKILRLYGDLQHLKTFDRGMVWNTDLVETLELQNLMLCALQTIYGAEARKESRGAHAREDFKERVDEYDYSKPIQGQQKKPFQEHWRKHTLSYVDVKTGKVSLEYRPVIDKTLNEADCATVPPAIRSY
Sequence of UniProt B2I0Z6 (whole entry, looked up): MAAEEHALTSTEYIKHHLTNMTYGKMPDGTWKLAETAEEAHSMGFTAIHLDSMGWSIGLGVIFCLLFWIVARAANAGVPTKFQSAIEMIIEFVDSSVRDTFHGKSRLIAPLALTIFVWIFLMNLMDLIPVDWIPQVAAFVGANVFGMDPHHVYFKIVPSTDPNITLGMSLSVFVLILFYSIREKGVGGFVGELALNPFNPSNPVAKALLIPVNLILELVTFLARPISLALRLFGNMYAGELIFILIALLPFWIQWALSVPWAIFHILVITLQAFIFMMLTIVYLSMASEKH
Sequence of UniProt P28074 (whole entry, looked up): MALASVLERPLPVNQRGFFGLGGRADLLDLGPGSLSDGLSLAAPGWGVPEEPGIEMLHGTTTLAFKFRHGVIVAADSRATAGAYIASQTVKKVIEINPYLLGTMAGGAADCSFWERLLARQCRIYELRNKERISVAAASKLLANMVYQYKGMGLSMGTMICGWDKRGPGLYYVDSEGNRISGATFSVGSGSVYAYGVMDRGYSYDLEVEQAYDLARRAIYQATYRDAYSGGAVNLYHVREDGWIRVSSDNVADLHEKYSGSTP
Sequence of UniProt A5GZW8 (whole entry, looked up): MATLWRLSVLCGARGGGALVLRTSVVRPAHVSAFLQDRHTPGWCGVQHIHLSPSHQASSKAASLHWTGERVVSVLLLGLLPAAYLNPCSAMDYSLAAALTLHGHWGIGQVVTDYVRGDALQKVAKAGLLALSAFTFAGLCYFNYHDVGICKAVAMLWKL
Sequence of UniProt Q9HA64 (whole entry, looked up): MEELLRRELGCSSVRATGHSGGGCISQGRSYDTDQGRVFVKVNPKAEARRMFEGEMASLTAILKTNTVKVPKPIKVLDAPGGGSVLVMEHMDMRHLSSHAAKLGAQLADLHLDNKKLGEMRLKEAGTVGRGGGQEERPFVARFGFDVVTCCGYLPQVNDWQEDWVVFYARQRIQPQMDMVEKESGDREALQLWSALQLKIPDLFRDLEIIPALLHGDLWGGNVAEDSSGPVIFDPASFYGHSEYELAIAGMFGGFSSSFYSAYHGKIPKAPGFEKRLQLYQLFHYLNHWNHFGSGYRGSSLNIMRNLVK
Sequence of UniProt Q06187 (whole entry, looked up): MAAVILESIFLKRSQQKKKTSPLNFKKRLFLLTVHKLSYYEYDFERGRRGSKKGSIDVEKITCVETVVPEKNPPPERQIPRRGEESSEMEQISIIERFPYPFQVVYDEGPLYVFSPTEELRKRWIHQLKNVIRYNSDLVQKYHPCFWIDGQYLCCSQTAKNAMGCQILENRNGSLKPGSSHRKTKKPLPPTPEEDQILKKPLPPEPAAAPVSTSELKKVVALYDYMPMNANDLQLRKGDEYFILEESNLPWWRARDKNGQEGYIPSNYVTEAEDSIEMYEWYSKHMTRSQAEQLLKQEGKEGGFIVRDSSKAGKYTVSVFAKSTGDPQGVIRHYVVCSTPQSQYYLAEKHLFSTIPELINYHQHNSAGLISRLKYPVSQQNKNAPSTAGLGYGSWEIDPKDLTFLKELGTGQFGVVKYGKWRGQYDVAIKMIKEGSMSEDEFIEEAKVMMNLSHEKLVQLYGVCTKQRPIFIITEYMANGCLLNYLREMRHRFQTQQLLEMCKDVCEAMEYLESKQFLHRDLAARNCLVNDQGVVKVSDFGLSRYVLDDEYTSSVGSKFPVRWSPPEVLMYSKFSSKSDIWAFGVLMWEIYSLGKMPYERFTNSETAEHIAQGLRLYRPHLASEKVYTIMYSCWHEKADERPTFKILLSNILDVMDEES
Sequence of UniProt Q04760 (whole entry, looked up): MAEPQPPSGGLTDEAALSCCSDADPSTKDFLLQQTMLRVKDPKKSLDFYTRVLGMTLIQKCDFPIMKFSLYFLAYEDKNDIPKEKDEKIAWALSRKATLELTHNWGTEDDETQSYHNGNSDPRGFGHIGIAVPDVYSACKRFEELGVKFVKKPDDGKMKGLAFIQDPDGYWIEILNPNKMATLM
Sequence of UniProt D0VWV4 (whole entry, looked up): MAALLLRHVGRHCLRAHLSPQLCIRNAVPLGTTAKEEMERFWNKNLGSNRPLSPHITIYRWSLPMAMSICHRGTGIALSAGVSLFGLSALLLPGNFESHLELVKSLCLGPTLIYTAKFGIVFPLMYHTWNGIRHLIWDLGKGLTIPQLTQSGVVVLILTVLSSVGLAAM
Sequence of UniProt Q007T0 (whole entry, looked up): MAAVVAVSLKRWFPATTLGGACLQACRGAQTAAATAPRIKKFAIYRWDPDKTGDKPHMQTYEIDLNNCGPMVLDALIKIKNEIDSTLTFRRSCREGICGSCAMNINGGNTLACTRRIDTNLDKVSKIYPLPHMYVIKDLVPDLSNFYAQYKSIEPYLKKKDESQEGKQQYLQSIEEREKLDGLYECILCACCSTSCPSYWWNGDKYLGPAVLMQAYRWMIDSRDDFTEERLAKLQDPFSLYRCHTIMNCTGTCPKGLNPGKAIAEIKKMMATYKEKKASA
Sequence of UniProt O60218 (whole entry, looked up): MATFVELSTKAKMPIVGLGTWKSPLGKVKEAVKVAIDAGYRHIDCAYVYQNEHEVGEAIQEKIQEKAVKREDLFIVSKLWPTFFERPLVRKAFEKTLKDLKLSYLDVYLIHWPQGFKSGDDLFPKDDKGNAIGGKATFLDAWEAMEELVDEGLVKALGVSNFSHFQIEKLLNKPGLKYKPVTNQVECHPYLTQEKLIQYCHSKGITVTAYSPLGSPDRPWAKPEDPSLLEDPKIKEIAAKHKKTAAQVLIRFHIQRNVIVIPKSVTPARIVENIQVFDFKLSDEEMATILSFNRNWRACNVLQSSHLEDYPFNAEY

| SMILES | target | test | system | setting | IC50 |
| --- | --- | --- | --- | --- | --- |
| N[C@@H](Cc1c[nH]c2ccc(OCc3ccccc3)cc12)C(=O)O | SLC7A5 (Homo sapiens, UniProt Q01650) | transporter uptake, inhibitor, radiometric | – | – | 18.8 µM and 19 µM |
| CCCCCC(O)/C=C/C=O (stereo not drawn) | Ketosamine-3-kinase, C24 (FN3KRP, Homo sapiens, UniProt Q9HA64) | cysteine probe labelling, competitive isoTOP-ABPP | MDA-MB-231 proteome | – | 6 to 23 µM |
| COc1ncccc1C(=O)Nc1ccccc1Nc1ccccc1 | Succinate dehydrogenase complex (Sus scrofa, UniProt A5GZW8+D0VWV4+Q007T0+Q0QF01) | enzyme activity, inhibitor, double-antibody sandwich ELISA | – | – | 4.95 µM |
| O=C(O[C@H]1Cc2c(O)cc(O)cc2O[C@@H]1c1ccc(O)c(O)c1)c1cc(O)c(O)c(O)c1 | maltase, rat | enzyme activity, inhibitor | rat intestinal brush border vesicles | – | 27.5 µM |
| N=C(N)NCCC[C@@H]1NC(=O)[C@H](Cc2c[nH]c3ccccc23)NC(=O)[C@H](CCCNC(=N)N)NC(=O)[C@H](Cc2c[nH]c3ccccc23)NC(=O)[C@H](CCCNC(=N)N)NC(=O)[C@H](Cc2c[nH]c3ccccc23)NC(=O)[C@H](CCCNC(=N)N)NC(=O)[C@H](Cc2c[nH]c3ccccc23)NC(=O)[C@H](CCCNC(=N)N)NC(=O)[C@H](Cc2c[nH]c3ccccc23)NC(=O)[C@H](CCCNC(=N)N)NC(=O)[C@H](Cc2c[nH]c3ccccc23)NC(=O)[C@H](CCCNC(=N)N)NC(=O)[C@H](Cc2c[nH]c3ccccc23)NC(=O)[C@H](CCCNC(=N)N)NC(=O)[C@H](Cc2c[nH]c3ccccc23)NC1=O | BTK (Homo sapiens, UniProt Q06187) | enzyme activity, inhibitor | – | – | < 0.25 µM |
| CCCCCCCC[N+](CCCCCCCC)(CCCCCCCC)CCCCCCCC | KCNK18 (Homo sapiens, UniProt Q7Z418) | ion current, inhibitor, patch clamp | – | – | 6 µM |
| CC(=O)N[C@@H]1[C@@H](O)[C@H](O)[C@@H](CO)O[C@@H]1CP(=O)(O)OP(=O)(O)OC[C@H]1O[C@@H](n2ccc(=O)[nH]c2=O)[C@H](O)[C@@H]1O | OGT (Homo sapiens, UniProt O15294) | enzyme activity, inhibitor, radiometric | – | – | 41 µM |
| N=C(N)NCCCC(N)C(=O)NCC(=O)NC(CCCNC(=N)NCCCSCC1OC(n2cnc3c(N)ncnc32)C(O)C1O)C(N)=O (stereo not drawn) | N-terminal Xaa-Pro-Lys N-methyltransferase 1 (Homo sapiens, UniProt Q9BV86) | enzyme activity, inhibitor, fluorescence | – | – | > 100 µM |
| COC(=O)CCSc1nc2n(n1)C(c1cccc(OC)c1)C(C(=O)Nc1cccnc1)=C(C)N2 (stereo not drawn) | MTOR (Homo sapiens, UniProt P42345) | enzyme activity, inhibitor, TR-FRET | – | – | 0.016 µM |
| COc1ccc(N2C(=O)CSC2c2cccc(Br)c2)c(OC)c1 (stereo not drawn) | ACTR2/ACTR3 (Bos taurus, UniProt A7MB62+P61157) | actin polymerization, inhibitor, pyrenyl-actin | – | 3 µM actin, 30% pyrenyl, with: 5 nM Arp2/3 complex, 1 µM N-WASp-VCA | 11 µM |
| O=C(Nc1ccccc1)Oc1ccc2c(c1)CCCN2C(=O)CCl | AKR1B10 (Homo sapiens, UniProt O60218) | enzyme activity, inhibitor | – | – | 0.7 µM |
| c1ccc(CSc2nc3ccccc3cc2CNCCC2CCN(C3CCCC3)CC2)cc1 | atpE/atpB (Acinetobacter baumannii, UniProt A3M139+B2I0Z6) | inhibitor | Acinetobacter baumannii, inner membrane vesicles | – | 0.479 µM |
| NS(=O)(=O)c1ccc(/N=N/c2ccc(O)c3ncccc23)cc1 | GLO1 (Homo sapiens, UniProt Q04760) | enzyme activity, inhibitor | – | – | 1.36 µM |
| OC[C@H]1[C@@H](O)[C@@H](O)CN1Cc1ccc(I)cc1 | Golgi alpha-mannosidase IIb (Drosophila melanogaster, UniProt Q9VF33) | – | – | pH 6.0, 0.5 mM CoCl2, with: 2 mM pNP-Man | 52 µM |
| C=C(NC(=O)C(=C)NC(=O)c1csc(C2=NC3c4csc(n4)C4NC(=O)c5csc(n5)C(C(C)(O)C(C)O)NC(=O)C5CSC(=N5)C(=CC)NC(=O)C(C(C)O)NC(=O)c5csc(n5)C3(CC2)NC(=O)C(CC(C)C)NC(=O)C(=C)NC(=O)C(C)NC(=O)C(C(C)CC)NC2C=Cc3c(C(C)O)cc(nc3C2O)C(=O)OC4C)n1)C(N)=O (stereo not drawn) | PSMB5 (Homo sapiens, UniProt P28074) | chymotrypsin-like activity, inhibitor | purified 20S proteasome | 15 min preincubation, 37 °C, with: Suc-Leu-Leu-Val-Tyr-AMC substrate | 0.53 ± 0.02 µM |

Repeated from above:
| SMILES | target | test | system | setting | IC50 |
| --- | --- | --- | --- | --- | --- |
| COc1ccc(N2C(=O)CSC2c2cccc(Br)c2)c(OC)c1 (stereo not drawn) | ACTR2/ACTR3 (Bos taurus, UniProt A7MB62+P61157) | actin polymerization, inhibitor, pyrenyl-actin | – | 3 µM actin, 30% pyrenyl, with: 5 nM Arp2/3 complex, 1 µM N-WASp-VCA | 11 µM |
